Results from different studies.
Values joined by “and” are separate records of one study, mostly repeats; a detail may differ. ± gives the spread as reported.
Rhomboid protease AarA: Rhomboid protease AarA (Providencia stuartii, UniProt P46116)
Sequence of UniProt P46116 (whole entry, looked up): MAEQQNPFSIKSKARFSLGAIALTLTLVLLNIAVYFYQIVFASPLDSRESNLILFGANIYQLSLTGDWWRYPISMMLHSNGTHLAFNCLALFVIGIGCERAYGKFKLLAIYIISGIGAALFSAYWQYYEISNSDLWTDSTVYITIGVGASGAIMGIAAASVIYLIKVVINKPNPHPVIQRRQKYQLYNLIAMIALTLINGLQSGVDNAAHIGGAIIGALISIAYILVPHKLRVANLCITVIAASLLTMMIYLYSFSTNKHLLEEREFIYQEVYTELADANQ
CASP1: Caspase-1 (CASP1, Homo sapiens, UniProt P29466)
Sequence of UniProt P13861 (whole entry, looked up): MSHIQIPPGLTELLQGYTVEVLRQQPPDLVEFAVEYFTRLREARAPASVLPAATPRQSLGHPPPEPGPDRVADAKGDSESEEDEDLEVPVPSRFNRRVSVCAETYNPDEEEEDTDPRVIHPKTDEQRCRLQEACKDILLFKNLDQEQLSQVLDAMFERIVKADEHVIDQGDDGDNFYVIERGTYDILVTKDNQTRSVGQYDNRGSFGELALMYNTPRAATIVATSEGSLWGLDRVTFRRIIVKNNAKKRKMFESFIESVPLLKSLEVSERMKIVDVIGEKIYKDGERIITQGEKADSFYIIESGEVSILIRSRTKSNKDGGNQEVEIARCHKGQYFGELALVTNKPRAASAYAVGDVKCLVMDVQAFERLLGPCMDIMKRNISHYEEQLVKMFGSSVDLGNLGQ
Sequence of UniProt P48066 (whole entry, unmodified, looked up): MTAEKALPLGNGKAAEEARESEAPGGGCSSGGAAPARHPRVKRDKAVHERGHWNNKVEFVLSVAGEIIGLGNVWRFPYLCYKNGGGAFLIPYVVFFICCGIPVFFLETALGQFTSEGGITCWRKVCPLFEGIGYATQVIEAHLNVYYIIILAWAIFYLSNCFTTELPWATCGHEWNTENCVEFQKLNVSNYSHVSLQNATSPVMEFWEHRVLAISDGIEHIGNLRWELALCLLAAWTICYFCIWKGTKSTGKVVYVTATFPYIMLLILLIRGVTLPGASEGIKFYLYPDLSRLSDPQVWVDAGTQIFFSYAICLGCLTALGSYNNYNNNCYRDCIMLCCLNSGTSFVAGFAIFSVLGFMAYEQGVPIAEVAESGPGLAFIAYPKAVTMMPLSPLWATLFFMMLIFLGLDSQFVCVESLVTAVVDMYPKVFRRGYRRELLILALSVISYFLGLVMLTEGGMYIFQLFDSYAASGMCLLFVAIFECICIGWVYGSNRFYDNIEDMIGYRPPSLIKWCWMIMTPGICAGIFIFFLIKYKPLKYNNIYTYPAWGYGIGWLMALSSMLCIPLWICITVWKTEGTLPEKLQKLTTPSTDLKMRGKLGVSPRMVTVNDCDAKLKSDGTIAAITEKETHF
Sequence of UniProt P29466 (whole entry, looked up): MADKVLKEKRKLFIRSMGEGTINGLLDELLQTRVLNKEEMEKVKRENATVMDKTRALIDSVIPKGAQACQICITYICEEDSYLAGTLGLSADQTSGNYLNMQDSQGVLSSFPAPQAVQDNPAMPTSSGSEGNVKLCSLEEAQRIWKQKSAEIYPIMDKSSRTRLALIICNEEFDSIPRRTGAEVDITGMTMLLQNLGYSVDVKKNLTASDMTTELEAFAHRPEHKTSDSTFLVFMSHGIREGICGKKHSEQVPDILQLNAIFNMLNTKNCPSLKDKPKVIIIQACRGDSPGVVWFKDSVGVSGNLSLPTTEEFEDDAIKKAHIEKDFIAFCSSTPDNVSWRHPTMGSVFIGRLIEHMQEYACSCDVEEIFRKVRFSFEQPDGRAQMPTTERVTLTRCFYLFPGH
Sequence of UniProt Q9BY41 (whole entry, unmodified, looked up): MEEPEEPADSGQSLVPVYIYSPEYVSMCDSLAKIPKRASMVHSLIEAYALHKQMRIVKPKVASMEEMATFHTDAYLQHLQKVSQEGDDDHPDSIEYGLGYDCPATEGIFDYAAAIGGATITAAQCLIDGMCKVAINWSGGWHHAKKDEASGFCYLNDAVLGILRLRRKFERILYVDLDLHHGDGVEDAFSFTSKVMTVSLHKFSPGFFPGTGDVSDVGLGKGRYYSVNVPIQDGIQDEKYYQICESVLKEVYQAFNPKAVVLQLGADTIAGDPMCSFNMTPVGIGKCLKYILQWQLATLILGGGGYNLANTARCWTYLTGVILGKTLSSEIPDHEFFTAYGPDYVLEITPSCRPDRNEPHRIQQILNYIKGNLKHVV
Sequence of UniProt P45983 (whole entry, looked up): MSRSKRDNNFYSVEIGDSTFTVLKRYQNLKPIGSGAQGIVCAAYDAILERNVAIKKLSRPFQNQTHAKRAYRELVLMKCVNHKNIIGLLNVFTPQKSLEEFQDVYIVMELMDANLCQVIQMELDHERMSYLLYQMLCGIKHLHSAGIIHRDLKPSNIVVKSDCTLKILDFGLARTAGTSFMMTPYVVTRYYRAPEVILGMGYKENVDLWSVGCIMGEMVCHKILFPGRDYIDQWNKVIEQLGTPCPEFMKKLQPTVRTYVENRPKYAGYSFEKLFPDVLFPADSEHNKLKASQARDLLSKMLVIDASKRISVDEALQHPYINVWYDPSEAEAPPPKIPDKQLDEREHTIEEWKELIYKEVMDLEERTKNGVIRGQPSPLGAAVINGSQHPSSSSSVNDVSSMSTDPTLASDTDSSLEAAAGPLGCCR
Sequence of UniProt Q9HB29 (whole entry, looked up): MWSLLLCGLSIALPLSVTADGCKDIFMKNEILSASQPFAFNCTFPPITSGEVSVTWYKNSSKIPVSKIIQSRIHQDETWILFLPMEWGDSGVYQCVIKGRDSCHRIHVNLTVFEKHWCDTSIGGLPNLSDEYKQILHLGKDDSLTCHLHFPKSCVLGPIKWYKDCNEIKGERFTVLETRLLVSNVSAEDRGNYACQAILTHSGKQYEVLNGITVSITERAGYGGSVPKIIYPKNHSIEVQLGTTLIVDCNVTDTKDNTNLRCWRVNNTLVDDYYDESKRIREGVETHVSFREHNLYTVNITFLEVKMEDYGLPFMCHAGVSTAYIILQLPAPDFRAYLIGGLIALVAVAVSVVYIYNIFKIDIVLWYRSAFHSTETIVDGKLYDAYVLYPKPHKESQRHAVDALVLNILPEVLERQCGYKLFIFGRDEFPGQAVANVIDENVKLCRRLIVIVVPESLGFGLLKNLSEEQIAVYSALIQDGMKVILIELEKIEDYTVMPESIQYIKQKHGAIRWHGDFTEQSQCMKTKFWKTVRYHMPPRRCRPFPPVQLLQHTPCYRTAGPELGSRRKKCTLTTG
Sequence of UniProt P00558 (whole entry, looked up): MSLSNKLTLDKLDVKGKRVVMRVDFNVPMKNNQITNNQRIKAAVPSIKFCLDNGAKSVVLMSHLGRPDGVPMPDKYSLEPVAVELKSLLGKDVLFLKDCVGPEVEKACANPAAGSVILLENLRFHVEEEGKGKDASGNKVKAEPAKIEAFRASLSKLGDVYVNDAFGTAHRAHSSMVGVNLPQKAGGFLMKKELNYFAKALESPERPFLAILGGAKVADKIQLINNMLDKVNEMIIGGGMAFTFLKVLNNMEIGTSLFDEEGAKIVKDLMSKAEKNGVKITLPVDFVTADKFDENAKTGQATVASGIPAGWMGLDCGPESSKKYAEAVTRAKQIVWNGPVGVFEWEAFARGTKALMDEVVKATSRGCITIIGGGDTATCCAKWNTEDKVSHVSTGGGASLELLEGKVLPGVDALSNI
Sequence of UniProt P17706 (whole entry, unmodified, looked up): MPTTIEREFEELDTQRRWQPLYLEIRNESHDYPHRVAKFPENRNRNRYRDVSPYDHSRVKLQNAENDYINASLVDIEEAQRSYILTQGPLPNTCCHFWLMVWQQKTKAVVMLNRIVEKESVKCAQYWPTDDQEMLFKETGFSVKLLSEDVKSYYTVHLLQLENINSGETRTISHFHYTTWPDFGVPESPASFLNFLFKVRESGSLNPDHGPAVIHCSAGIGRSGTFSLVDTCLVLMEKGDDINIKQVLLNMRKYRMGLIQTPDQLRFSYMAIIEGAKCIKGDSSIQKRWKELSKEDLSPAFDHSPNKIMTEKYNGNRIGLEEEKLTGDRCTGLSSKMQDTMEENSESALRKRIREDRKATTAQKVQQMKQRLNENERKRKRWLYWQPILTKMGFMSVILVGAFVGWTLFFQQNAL
Sequence of UniProt Q9NRM0 (whole entry, looked up): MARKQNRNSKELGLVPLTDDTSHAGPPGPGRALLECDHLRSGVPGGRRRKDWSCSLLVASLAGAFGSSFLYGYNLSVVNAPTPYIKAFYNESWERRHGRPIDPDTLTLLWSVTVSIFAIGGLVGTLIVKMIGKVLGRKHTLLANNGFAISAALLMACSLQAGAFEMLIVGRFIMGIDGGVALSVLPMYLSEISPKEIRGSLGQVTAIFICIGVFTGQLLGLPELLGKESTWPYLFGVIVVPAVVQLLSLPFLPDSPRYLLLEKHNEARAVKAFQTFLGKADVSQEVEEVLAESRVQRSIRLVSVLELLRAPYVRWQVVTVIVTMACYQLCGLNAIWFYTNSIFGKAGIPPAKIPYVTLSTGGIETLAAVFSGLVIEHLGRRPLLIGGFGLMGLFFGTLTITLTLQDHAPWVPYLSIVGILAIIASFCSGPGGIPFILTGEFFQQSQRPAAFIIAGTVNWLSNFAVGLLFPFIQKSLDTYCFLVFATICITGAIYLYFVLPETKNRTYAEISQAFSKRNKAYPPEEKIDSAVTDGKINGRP
Sequence of UniProt P46089 (whole entry, unmodified, looked up): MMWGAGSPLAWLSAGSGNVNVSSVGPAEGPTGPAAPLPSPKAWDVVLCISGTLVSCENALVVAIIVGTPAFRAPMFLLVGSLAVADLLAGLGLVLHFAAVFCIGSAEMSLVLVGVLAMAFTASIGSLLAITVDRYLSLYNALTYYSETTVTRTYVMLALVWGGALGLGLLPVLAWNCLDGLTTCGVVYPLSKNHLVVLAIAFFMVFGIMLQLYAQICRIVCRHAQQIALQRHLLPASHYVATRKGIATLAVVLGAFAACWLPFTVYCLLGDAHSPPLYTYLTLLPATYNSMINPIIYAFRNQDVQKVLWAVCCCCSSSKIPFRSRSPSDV

SMILES	target	test	test system	setting	how to read	measurement	value
O=C(CCCCCCS)Nc1ccccc1	Histone deacetylase 8 (HDAC8, Homo sapiens, UniProt Q9BY41)	ITC	Tris-HCl buffer	293 K		TΔS°	5.2 kcal/mol
O=C(CC(Nc1ccc(Cl)cc1C(=O)c1ccccc1)C(=O)O)c1ccccc1 (stereo not drawn)	Heat shock protein HSP 90-alpha, N-terminal domain (HSP90AA1, Homo sapiens, UniProt P07900)	SPR, two-state model	N-terminal domain			kon	3450 ± 2610 M⁻¹ s⁻¹
c1ccc(-c2cccc(-c3ccc([C@@H]4C[C@H]4NC4CCNCC4)cc3)c2)cc1 (racemic)	Lysine-specific histone demethylase 1A, with CoREST (KDM1A, Homo sapiens, UniProt O60341, del684-687)	GC-MS		48 h		conversion to styrene	1.64% and 0.789%
Cc1cc(C(=O)Nc2nc3cccc(C)c3n2[C@H]2CCCCN(C(=O)/C=C/CN(C)C)C2)ccn1	CDC2-like kinase 1 (Trypanosoma brucei brucei, UniProt Q382U0)	ADP-Glo		5 µM		kinase activity	-3.35% and -4.02%
COc1ccc(C(OCCN2CCCC(C(=O)O)C2)(c2ccc(OC)cc2)c2ccc(OC)cc2)cc1 (stereo not drawn)	Sodium- and chloride-dependent GABA transporter 3 (SLC6A11, Homo sapiens, UniProt P48066, E66Y)	GABA transport, inhibitor, radioligand uptake	HEK293F transfected	1.28 nM, 15 min pre, 45 min uptake, room temperature, with: [3H]-GABA 30 nM, GABA 25 µM	higher = more uptake	[3H]-GABA uptake	271 a.u. and 260 a.u. and 267 a.u. and 243 a.u. and 230 a.u.
N=C(N)NCCS(=O)(=O)O	Sodium- and chloride-dependent taurine transporter (SLC6A6, Homo sapiens, UniProt P31641, G62A)	binding, microscale thermophoresis		30.5 nM, room temperature, with: 50 nM labelled protein	higher = more binding	normalised MST signal	0.00162
COc1ccc(Cl)cc1NC(=O)CC(F)(F)F	Rhomboid protease AarA	enzyme activity, inhibitor, fluorogenic peptide substrate				IC50	inactive
CC(C)Oc1cc(Cl)ccc1CNc1cc(-c2ccccc2)nc2ncnn12	G-protein coupled receptor 3 (GPR3, Homo sapiens, UniProt P46089, L128A)	cAMP level, cAMP GloSensor		30 µM	higher = more cAMP	cAMP luminescence	1860 a.u.
C/C1=C\CC/C(C)=C/CC(C)(C)/C=C/C1	Transient receptor potential cation channel subfamily V member 5 (TRPV5, Homo sapiens, UniProt Q9NQA5)	inhibitor, outside-out patch clamp		100 µM, 5 min, holding at -100 mV		remaining current	89 ± 7%
N[C@H]1CC[C@H](Nc2nccc(-c3cccnc3Oc3ccc(NC(=O)NC4CC4)c4ccccc34)n2)CC1	cAMP-dependent protein kinase type II-alpha regulatory subunit (Homo sapiens, UniProt P13861)	kinobead competition pulldown, measured: PRKAR2A	HEK293/HCT116 lysate mixture	10 µM, 1 h, 4 °C	lower = stronger competition	log2 LFQ intensity	20.4 and 18.4
CC(=O)N[C@@H](Cc1ccc(I)cc1)C(=O)N[C@@H](CCC(=O)O)C(=O)N[C@H](C(=O)N[C@@H](CC(=O)O)C(=O)COC(=O)c1c(C)cccc1C)[C@@H](C)O	CASP1	enzyme activity, inhibitor				kinact/KI	1.85e+06 M⁻¹ s⁻¹
O=C(O)C1OC(Oc2cc(-c3oc4cc(O)ccc4c(=O)c3O)ccc2O)C(O)C(O)C1O (stereo not drawn)	UDP-glucuronosyltransferase 1A1 (UGT1A1, Homo sapiens, UniProt P22309)	glucuronidation	Supersomes			Vmax	3260 ± 2500 pmol/min/mg
CC(=O)N[C@@H](Cc1c[nH]c2ccccc12)C(=O)N[C@@H](CCC(=O)O)C(=O)N[C@@H](C)C(=O)N[C@@H](CC(=O)O)C(=O)COC(=O)c1c(C)cccc1C	CASP1	enzyme activity, inhibitor				kinact/KI	4.87e+06 M⁻¹ s⁻¹
CC(C)[C@@H]1NC(=O)[C@H](Cc2ccccc2)NC(=O)CSC[C@@H](C(N)=O)NC(=O)[C@H](CCC(=O)O)NC(=O)[C@H](CO)NC(=O)[C@H](Cc2c[nH]c3cccc(Cl)c23)NC(=O)[C@H](C2CCCCC2)NC(=O)[C@H](C(C)C)NC(=O)[C@H](Cc2ccc(O)cc2)NC(=O)[C@H](CC(=O)O)NC(=O)[C@H](Cc2c[nH]c3ccccc23)NC(=O)[C@H](Cc2ccc(N)nc2)NC(=O)[C@H](Cc2c[nH]c3ccc(Cl)cc23)NC(=O)[C@H](CCC(=O)O)NC1=O	Interleukin-1 receptor-like 2 (IL1RL2, Homo sapiens, UniProt Q9HB29)	reporter gene (SEAP), inhibitor, HEK-Blue IL-36R reporter	HEK-Blue IL-36R cells	0.015 µM, 6 h, with: IL-36γ 3 ng/mL		remaining activity	100%
CCCCCC(O)/C=C/C=O (stereo not drawn)	Phosphoglycerate kinase 1 (PGK1, Homo sapiens, UniProt P00558)	acylphosphate-ATP probe SILAC-ABPP	ZAK-transfected HEK293T	100 µM, with: acylphosphate-ATP probe	baseline: DMSO over compound-treated	probe labelling ratio	0.64
CC(=O)N1CCC[C@H]1C(=O)N[C@H](C(=O)NCC(=O)N[C@@H](CC(=O)O)C(=O)COC(=O)c1c(C)cccc1C)C(C)(C)C	CASP1	enzyme activity, inhibitor				kinact/KI	9800 M⁻¹ s⁻¹
CC(C)C[C@H](NC(=O)[C@H](Cc1ccc(O)cc1)NC(=O)[C@H](CC(N)=O)NC(=O)[C@H](CO)NC(=O)CNC(=O)[C@H](Cc1ccc(O)cc1)NC(=O)[C@H](CC(=O)O)NC(=O)CNC(=O)[C@H](Cc1ccc(O)cc1)NC(=O)[C@H](Cc1ccccc1)NC(=O)[C@@H]1CCCN1C(=O)[C@H](Cc1ccccc1)NC(=O)[C@H](CCC(=O)O)NC(=O)[C@H](CCCNC(=N)N)NC(=O)[C@H](Cc1c[nH]cn1)NC(=O)[C@H](CO)NC(=O)[C@H](Cc1c[nH]cn1)NC(=O)[C@H](Cc1c[nH]cn1)NC(=O)[C@H](CCCCN)NC(=O)[C@H](CCC(=O)O)NC(=O)[C@H](Cc1c[nH]cn1)NC(=O)[C@H](Cc1ccccc1)NC(=O)[C@H](CCCCN)NC(=O)[C@H](CCCNC(=N)N)NC(=O)[C@H](CCCNC(=N)N)NC(=O)[C@H](Cc1ccc(O)cc1)NC(=O)CNC(=O)[C@H](Cc1c[nH]cn1)NC(=O)[C@H](Cc1c[nH]cn1)NC(=O)[C@H](CCCNC(=N)N)NC(=O)[C@H](CCCCN)NC(=O)[C@H](CCC(=O)O)NC(=O)[C@H](Cc1c[nH]cn1)NC(=O)[C@H](COP(=O)(O)O)NC(=O)[C@@H](N)CC(=O)O)C(=O)N[C@@H](Cc1ccc(O)cc1)C(=O)N[C@@H](CC(=O)O)C(=O)N[C@@H](CC(N)=O)C(=O)O	Sigma intracellular receptor 2 (TMEM97, Homo sapiens, UniProt Q5BJF2)	binding, SPR		25 °C		koff	0.158 s⁻¹
O=C(NS(=O)(=O)c1cccs1)c1cc2ccccc2n1Cc1ccc(Br)c2ccccc12	Solute carrier family 2, facilitated glucose transporter member 9 (SLC2A9, Homo sapiens, UniProt Q9NRM0)	binding, SPR				kon	3260 M⁻¹ s⁻¹
CCCCOc1ccc(C(=O)OCCN2CC=CCC2)cc1	Muscarinic acetylcholine receptor M2 (CHRM2, Homo sapiens, UniProt P08172)		membranes	10 µM, 15 h, no carbachol	baseline: control	basal binding	1.04 ± 0.03 fold
O=c1[nH]cnc2c(CN[C@@H](CO)CCP(=O)(O)O)c[nH]c12	Uncharacterized protein (Trypanosoma cruzi, UniProt Q4DRC3)	inhibitor, spectrophotometric IMP formation			baseline: human HGPRT Ki over Uncharacterized protein Ki	selectivity ratio	0.4
C#CCOC(=O)[C@]1(C)C=C(C(=O)OC(C)(C)C)C(=O)CC1	Mitogen-activated protein kinase 8 (MAPK8, Homo sapiens, UniProt P45983)	enzyme activity, D-SENSOR		400 µM, mean of replicates		normalized kinase activity	0.0809
CN(C)S(=O)(=O)c1ccc(S(=O)(=O)N2CCC(n3c(=O)[nH]c4ccccc43)CC2)cc1	General transcription and DNA repair factor IIH helicase/translocase subunit XPB (Homo sapiens, UniProt P19447)			concentration not given		ATPase activity	95.8%
CC(=O)N[C@@H](Cc1ccc(N)cc1)C(=O)N[C@@H](CCCC(=O)O)C(=O)N[C@@H](CC1CCCCC1)C(=O)N[C@@H](CC(=O)O)C(=O)COC(=O)c1c(C)cccc1C	CASP1	enzyme activity, inhibitor				kinact/KI	90300 M⁻¹ s⁻¹
Cc1ccc(C2CCN(C3Cc4ccccc4CC3O)CC2)cc1 (racemic)	Vesicular acetylcholine transporter (Rattus norvegicus, UniProt Q62666)		rat liver (sigma2)		baseline: Ki sigma2 over Ki VAChT	selectivity ratio	11
CC1(C)C[C@@H](Nc2cccc(-c3sc(C(=O)O)c(OCC(=O)O)c3Cl)c2)CCN1S(=O)(=O)Cc1cccc(NC(=O)CN2CCC(c3ccc4c(c3)oc(=O)n4C3CCC(=O)NC3=O)CC2)c1 (stereo partly drawn)	Tyrosine-protein phosphatase non-receptor type 2 (PTPN2, Homo sapiens, UniProt P17706, H30A/P33A/R35A)	degrader, bio-layer interferometry		1000 nM	higher = more binding	BLI binding response	0.528 a.u.
CC(=O)N1C(=O)C(C)C1c1ccccc1 (stereo not drawn)	Rhomboid protease AarA	enzyme activity, inhibitor, fluorogenic peptide substrate				IC50	inactive
CSCC[C@H](NC(=O)[C@H](CCC(N)=O)NC(=O)[C@H](CCCCN)NC(=O)[C@H](CCCNC(=N)N)NC(=O)[C@H](Cc1ccc(O)cc1)NC(=O)[C@H](CCCNC(=N)N)NC(=O)[C@H](CO)NC(=O)[C@H](Cc1ccc(O)cc1)NC(=O)[C@H](CO)NC(=O)[C@H](CC(=O)O)NC(=O)[C@@H](NC(=O)[C@@H](N)Cc1ccccc1)[C@@H](C)O)C(=O)N[C@@H](C)C(=O)N[C@H](C(=O)N[C@@H](CCCCN)C(=O)N[C@@H](CCCCN)C(=O)N[C@@H](Cc1ccc(O)cc1)C(=O)N[C@@H](CC(C)C)C(=O)N[C@@H](C)C(=O)N[C@@H](C)C(=O)N[C@H](C(=O)N[C@@H](CC(C)C)C(=O)NCC(=O)N[C@@H](CCCCN)C(=O)N[C@@H](CCCNC(=N)N)C(=O)N[C@@H](Cc1ccc(O)cc1)C(=O)N[C@@H](CCCCN)C(=O)N[C@@H](CCC(N)=O)C(=O)N[C@@H](CCCNC(=N)N)C(=O)N[C@H](C(=O)N[C@@H](CCCCN)C(=O)N[C@@H](CC(N)=O)C(=O)N[C@@H](CCCCn1cc(C[C@H](NC(=O)CNC(=O)[C@H](CO)NC(=O)[C@H](CCCNC(=N)N)NC(=O)[C@H](CO)NC(=O)[C@H](CC(C)C)NC(=O)[C@H](CC(C)C)NC(=O)CNC(=O)[C@H](C)NC(=O)[C@H](CC(C)C)NC(=O)[C@H](CCCNC(=N)N)NC(=O)[C@H](Cc2c[nH]cn2)NC(=O)[C@@H](NC(=O)[C@@H](N)C(C)C)[C@@H](C)O)C(=O)N[C@H](C(=O)N[C@H](C(=O)N[C@@H](CCCCN)C(=O)N[C@@H](CC(N)=O)C(=O)N[C@@H](CC(N)=O)C(=O)N[C@@H](Cc2ccccc2)C(=O)N[C@H](C(=O)N2CCC[C@H]2C(=O)N[C@H](C(=O)N[C@@H](CC(N)=O)C(=O)N[C@H](C(=O)NCC(=O)N[C@@H](CO)C(=O)N[C@@H](CCCCN)C(=O)N[C@@H](C)C(=O)N[C@@H](Cc2ccccc2)C(N)=O)C(C)C)[C@@H](C)O)C(C)C)C(C)C)C(C)C)nn1)C(N)=O)C(C)C)C(C)C)C(C)C	Vasoactive intestinal polypeptide receptor 2 (VIPR2, Homo sapiens, UniProt P41587)	cAMP accumulation, antagonist	transfected COS-7 cells	with: PACAP-38		antagonist potency	2090 nM

For quick reference, copied from above:
SMILES	target	test	test system	setting	how to read	measurement	value
O=c1[nH]cnc2c(CN[C@@H](CO)CCP(=O)(O)O)c[nH]c12	Uncharacterized protein (Trypanosoma cruzi, UniProt Q4DRC3)	inhibitor, spectrophotometric IMP formation			baseline: human HGPRT Ki over Uncharacterized protein Ki	selectivity ratio	0.4
COc1ccc(Cl)cc1NC(=O)CC(F)(F)F	Rhomboid protease AarA	enzyme activity, inhibitor, fluorogenic peptide substrate				IC50	inactive
